Measured values pooled from the literature.
Each line is one published result; not all experiments were run side by side. Several values in a cell are separate wells, animals, samples, runs or records. ± marks the error that the study gave.
LRP1 D1085A CR8 domain D1085A: LRP1, CR8 domain D1085A (Homo sapiens, UniProt Q07954, D1085A)
UniProt Q07954, sequence (whole entry, unmodified, looked up): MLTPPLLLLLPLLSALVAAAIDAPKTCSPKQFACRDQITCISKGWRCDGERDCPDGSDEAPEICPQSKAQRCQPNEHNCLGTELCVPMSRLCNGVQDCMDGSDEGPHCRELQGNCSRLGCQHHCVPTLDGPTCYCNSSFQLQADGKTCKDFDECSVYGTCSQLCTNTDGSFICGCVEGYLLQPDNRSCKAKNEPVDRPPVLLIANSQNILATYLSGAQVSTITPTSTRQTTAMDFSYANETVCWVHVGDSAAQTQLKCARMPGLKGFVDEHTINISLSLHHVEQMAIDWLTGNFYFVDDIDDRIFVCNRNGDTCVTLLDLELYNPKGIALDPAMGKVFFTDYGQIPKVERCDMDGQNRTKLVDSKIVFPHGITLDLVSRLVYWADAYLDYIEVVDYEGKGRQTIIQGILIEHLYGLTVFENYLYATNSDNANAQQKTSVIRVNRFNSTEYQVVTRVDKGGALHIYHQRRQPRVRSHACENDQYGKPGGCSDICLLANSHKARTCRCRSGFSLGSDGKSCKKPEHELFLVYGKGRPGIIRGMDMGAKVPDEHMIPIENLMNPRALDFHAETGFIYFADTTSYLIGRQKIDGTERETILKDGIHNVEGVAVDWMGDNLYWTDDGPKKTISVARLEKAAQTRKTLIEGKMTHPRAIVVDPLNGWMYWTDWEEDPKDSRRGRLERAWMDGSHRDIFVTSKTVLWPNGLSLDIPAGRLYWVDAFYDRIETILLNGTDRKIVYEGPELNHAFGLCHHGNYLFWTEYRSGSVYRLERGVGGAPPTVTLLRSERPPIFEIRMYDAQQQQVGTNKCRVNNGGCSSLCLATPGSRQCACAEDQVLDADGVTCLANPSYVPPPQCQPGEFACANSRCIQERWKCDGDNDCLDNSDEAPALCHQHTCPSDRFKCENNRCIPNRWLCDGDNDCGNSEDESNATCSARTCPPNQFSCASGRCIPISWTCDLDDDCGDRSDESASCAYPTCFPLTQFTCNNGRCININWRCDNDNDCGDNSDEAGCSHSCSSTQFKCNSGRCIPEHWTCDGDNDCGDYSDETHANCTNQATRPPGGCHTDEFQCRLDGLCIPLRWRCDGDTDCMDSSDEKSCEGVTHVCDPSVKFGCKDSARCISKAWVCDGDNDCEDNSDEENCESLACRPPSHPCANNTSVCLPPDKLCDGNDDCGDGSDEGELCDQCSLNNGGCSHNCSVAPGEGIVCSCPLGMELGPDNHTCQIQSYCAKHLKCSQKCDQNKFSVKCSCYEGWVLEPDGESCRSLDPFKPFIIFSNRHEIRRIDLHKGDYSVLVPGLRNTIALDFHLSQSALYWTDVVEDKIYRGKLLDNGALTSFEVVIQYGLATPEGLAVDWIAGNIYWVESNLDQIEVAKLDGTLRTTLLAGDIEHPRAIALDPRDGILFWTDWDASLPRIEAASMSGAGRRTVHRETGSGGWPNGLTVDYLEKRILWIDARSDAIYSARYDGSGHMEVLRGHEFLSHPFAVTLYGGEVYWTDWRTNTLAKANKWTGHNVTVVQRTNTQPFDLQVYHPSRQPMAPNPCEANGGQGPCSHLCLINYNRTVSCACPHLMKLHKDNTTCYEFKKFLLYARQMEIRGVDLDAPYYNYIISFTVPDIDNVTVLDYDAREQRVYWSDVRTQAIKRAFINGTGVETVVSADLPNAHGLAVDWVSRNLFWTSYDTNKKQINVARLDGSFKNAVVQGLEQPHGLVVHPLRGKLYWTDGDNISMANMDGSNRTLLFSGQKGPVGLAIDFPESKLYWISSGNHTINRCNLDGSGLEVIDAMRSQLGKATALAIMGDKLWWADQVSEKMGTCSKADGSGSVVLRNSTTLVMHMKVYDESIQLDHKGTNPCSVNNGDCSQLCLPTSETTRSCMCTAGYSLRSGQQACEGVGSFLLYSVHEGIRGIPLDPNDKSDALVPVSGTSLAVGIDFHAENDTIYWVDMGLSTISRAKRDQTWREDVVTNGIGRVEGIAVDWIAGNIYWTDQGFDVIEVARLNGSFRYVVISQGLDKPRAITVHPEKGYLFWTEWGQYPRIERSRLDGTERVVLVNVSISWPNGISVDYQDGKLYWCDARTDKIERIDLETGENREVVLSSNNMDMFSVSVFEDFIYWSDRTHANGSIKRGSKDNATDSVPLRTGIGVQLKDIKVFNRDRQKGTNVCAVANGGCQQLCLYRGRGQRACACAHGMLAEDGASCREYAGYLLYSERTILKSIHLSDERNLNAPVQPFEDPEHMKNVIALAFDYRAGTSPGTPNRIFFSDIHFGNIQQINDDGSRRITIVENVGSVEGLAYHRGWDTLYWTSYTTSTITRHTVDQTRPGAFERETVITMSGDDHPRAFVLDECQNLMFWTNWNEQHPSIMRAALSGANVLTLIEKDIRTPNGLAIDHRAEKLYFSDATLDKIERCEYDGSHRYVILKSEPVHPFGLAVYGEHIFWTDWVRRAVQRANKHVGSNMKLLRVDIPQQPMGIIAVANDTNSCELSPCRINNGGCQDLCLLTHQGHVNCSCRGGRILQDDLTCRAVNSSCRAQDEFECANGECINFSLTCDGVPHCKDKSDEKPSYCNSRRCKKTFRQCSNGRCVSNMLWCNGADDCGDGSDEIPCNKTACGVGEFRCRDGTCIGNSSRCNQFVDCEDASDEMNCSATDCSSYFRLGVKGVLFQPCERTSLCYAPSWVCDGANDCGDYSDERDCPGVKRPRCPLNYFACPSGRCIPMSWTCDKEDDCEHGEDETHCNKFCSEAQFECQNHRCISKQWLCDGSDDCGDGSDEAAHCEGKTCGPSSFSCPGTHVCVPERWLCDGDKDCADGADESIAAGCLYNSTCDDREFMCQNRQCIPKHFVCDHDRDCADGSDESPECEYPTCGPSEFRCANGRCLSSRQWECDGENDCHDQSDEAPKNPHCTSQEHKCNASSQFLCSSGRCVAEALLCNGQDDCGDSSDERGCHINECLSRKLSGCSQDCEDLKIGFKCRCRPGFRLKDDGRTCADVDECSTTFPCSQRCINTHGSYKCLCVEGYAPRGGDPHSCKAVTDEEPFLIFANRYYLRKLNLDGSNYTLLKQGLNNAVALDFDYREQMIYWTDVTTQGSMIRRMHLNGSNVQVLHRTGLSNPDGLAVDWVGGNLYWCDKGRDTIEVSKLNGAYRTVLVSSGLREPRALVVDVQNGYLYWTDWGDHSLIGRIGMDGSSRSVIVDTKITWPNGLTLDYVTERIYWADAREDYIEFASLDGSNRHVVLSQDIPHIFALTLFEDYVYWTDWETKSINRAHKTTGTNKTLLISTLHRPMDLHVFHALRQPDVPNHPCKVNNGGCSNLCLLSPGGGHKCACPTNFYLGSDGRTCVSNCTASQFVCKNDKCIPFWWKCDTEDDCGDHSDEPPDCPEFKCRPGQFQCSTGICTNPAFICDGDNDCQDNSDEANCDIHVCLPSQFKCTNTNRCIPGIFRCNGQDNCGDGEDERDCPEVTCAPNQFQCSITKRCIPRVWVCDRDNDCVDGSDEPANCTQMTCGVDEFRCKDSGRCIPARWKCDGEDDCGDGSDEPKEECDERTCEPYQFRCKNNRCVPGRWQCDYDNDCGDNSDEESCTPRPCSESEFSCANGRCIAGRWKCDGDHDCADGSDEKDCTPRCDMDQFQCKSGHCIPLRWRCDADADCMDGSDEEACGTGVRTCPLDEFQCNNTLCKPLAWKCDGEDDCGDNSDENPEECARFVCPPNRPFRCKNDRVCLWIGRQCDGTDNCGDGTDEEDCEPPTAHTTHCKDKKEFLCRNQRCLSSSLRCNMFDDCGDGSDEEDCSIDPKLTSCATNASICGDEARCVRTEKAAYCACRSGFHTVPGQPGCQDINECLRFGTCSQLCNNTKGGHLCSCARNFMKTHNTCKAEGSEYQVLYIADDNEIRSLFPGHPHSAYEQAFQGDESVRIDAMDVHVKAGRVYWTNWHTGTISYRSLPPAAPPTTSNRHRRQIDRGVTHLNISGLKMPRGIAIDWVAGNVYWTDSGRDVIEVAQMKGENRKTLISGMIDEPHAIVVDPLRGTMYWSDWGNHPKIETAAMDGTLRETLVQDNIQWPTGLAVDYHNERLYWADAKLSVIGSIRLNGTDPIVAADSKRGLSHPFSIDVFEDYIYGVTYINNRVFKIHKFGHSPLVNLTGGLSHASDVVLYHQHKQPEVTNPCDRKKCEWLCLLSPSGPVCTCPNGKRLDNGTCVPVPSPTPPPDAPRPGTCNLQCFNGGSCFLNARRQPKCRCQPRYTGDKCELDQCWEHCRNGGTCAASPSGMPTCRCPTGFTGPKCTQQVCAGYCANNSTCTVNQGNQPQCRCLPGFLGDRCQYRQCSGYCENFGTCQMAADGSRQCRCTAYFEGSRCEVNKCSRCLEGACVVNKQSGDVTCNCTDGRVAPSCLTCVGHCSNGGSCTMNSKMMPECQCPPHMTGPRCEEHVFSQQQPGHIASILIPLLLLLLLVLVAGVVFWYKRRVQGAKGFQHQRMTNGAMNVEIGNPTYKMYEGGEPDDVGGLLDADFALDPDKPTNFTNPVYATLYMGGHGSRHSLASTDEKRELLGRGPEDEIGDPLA
GRB2: Growth factor receptor-bound protein 2 (GRB2, Homo sapiens, UniProt P62993)
HCRTR1: Orexin/Hypocretin receptor type 1 (HCRTR1, Homo sapiens, UniProt O43613)
UniProt O43613, sequence (whole entry, looked up): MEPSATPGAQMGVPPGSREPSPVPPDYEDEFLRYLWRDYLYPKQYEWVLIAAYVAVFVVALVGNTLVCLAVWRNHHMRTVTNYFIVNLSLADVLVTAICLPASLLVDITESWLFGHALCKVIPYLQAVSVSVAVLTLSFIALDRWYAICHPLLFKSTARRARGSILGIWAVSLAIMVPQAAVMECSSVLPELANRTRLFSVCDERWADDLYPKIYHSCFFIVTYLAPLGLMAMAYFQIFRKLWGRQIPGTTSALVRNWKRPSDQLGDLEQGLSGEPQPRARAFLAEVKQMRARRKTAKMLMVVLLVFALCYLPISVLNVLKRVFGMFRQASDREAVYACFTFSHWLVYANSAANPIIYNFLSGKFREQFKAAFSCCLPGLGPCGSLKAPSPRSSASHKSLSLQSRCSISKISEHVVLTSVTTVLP
UniProt Q9UGC6, sequence (whole entry, looked up): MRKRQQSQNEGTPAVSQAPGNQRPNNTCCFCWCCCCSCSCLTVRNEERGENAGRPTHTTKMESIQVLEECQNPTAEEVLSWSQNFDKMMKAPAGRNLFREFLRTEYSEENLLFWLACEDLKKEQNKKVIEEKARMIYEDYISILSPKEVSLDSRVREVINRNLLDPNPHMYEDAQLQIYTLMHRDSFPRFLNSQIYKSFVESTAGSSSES

The Kd of COC(=O)[C@@H](N)CCCCN is reported as 3900 ± 270 µM (LRP1 D1085A CR8 domain D1085A; tryptophan fluorescence titration; pH 7.4, 298 K, ionic strength 0.02).
With CNc1ccc(/C=C/c2ccc(OCCOCCOCCF)nc2)cc1 [fluorine-18 labelled] the Kd was 0.00351 µM (Amyloid-beta precursor protein, amyloid-beta aggregates (APP, Homo sapiens, UniProt P05067); saturation binding, item: amyloid-beta; human, Alzheimer's disease brain homogenate).
The Kd of OC(c1cc(C23CC4CC(CC(C4)C2)C3)nc2c(Cl)cc(Cl)cc12)C1CCCCN1 (stereo not drawn) is reported as 6.6 µM (Ezrin (EZR, Homo sapiens, UniProt P15311); binding, SPR).
The Kd of COC(=O)c1cc(CCc2ccc(NC(=O)c3cc(OC)cc(OC)c3)c(C(=O)OC)c2)ccc1NC(=O)c1cc(OC)cc(OC)c1 is reported as 87.5 µM (Peptidyl-prolyl cis-trans isomerase A (PPIA, Homo sapiens, UniProt P62937); binding, SPR; pH 7.4).
With CN(CCOc1ccc(CC2SC(=O)NC2=O)cc1)c1ccccn1 (stereo not drawn) the Kd was 0.22 ± 0.08 µM (Cytochrome P450 2C8 (CYP2C8, Homo sapiens, UniProt P10632); binding, equilibrium spectral titration; purified enzyme; pH 7.4, 25 °C, second site, two-site model, together with: 2 µM enzyme).
`phosphatidylinositol 3,4,5-trisphosphate` has a Kd of over 100 µM (Src kinase-associated phosphoprotein 2, PH domain (Skap2, Mus musculus, UniProt Q3UND0, R140M); fluorescence polarization direct titration; pH 6.5, 21 °C, compound labelled with BODIPY TMR-X).
The Kd of c1ccc2c(c1)ccc1nc3ccc4ccccc4c3cc12 is reported as 1.6 µM and < 2.5 µM (Cytochrome P450 1B1 (CYP1B1, Homo sapiens, UniProt Q16678); binding, fluorescence; pH 7.4).
For `PGNESLKAMLFCLFKLSSCNQSNDGSVSHQS`, the Kd was 0.634 µM (anti-EGFR antibody, rabbit; binding, surface plasmon resonance; peptide; pH 7.4; lower = stronger binding).
The Kd of CSCC[C@H](NC(=O)[C@H](CC(C)C)NC(=O)[C@H](CC(C)C)NC(=O)[C@H](CC(C)C)NC(=O)[C@H](C)N)C(=O)N[C@@H](Cc1ccc(O)cc1)C(=O)N[C@@H](CCCNC(=N)N)C(=O)N[C@@H](CCCNC(=N)N)C(=O)O is reported as 1.95 µM (dnaK (Escherichia coli, UniProt P0A6Y8); peptide binding, surface plasmon resonance; together with: ATP).
With CC(C)C[C@H](NC(=O)[C@H](CC(N)=O)NC(=O)[C@H](CCCNC(=N)N)NC(=O)[C@H](CC(=O)O)NC(=O)[C@@H](NC(=O)[C@@H]1CCCN1C(=O)[C@@H]1CCCN1C(=O)[C@@H]1CCCN1)C(C)C)C(=O)N[C@@H](CCCCN)C(=O)N1CCC[C@H]1C(=O)N[C@@H](CC(=O)O)C(=O)N[C@@H](C)C(=O)O the Kd was 132 µM (GRB2; binding, ITC; pH 8).
OCCCCCOc1ccc(Cl)cc1 has a Kd of 2900 µM (Regulator of G-protein signaling 17 (Homo sapiens, UniProt Q9UGC6); binding, NMR).
The Kd of COc1ccc(CC2c3cc(OC)c(OC)cc3CCN2CC(=O)N2CCc3ccccc3C2)cc1OC (stereo not drawn) is reported as 3.03 ± 0.17 µM (HCRTR1).
With `fibrinogen` the Kd was 0.12 µM (ITGAM (Homo sapiens, UniProt P11215); binding).
CC(=O)N[C@H]1C(O)O[C@H](CO)[C@H](O)[C@@H]1O (mixture of isomers) gave a Kd of 14.7 µM (CLEC10A (Homo sapiens, UniProt Q8IUN9); ITC; pH 7.4, 298 K).
With CC[n+]1c(-c2ccccc2)c2cc(N)ccc2c2ccc(N)cc21 the Kd was 1.9 ± 0.2 µM (HIV-1 SL3 RNA stem-loop; binding, ESI-FTMS titration; pH 7.5).
CSCC[C@H](NC(=O)[C@H](CC(C)C)NC(=O)[C@H](CCCCN)NC(=O)[C@H](CCCCN)NC(=O)[C@H](Cc1c[nH]cn1)NC(=O)[C@H](CCCNC(=N)N)NC(=O)[C@H](CO)NC(=O)[C@@H](NC(=O)[C@H](CO)NC(=O)[C@H](CCC(N)=O)NC(=O)CNC(=O)[C@H](CCCCN)NC(=O)[C@H](CCCCN)NC(=O)[C@H](CO)NC(=O)[C@H](CCCCN)NC(=O)[C@H](CC(C)C)NC(=O)[C@H](Cc1c[nH]cn1)NC(=O)[C@H](CO)NC(=O)[C@H](Cc1ccc(O)cc1)NC(C)=O)[C@@H](C)O)C(=O)N[C@@H](Cc1ccccc1)C(=O)N[C@@H](CCCCN)C(=O)N[C@H](C(=O)N[C@@H](CCC(=O)O)C(N)=O)[C@@H](C)O gave a Kd of 1 ± 0.5 µM (Protein S100-B (Homo sapiens, UniProt P04271); binding, NMR line shape analysis; 35 °C, low salt).
The Kd of COC(=O)[C@H](CCCCN)NC(C)=O is reported as 12700 ± 2900 µM (LRP1 D1085A CR8 domain D1085A; tryptophan fluorescence titration; pH 7.4, 298 K, ionic strength 0.02).
COc1ccc(CC2c3cc(OCCN(C)C)c(OC)cc3CCN2CC(=O)NCc2ccccc2)cc1OC (stereo not drawn) gave a Kd of 4.74 ± 0.44 µM (HCRTR1).
With O=C(O)CC(O)(CC(=O)O)C(=O)O the Kd was at least 48000 µM (SLC4A1 (Homo sapiens, UniProt P02730); Cl- exchange, inhibitor, 36Cl flux; erythrocytes; pH 8, trivalent form only).
`6-amino muramyl dipeptide` has a Kd of 0.362 ± 0.04 µM (NACHT, LRR and PYD domains-containing protein 1 (NLRP1, Homo sapiens, UniProt Q9C000); binding, surface plasmon resonance; amine derivative tethered to SAM).
The Kd of CC(=O)O[C@H]1C(=O)[C@@]2(C)[C@H]([C@H](OC(=O)c3ccccc3)[C@]3(O)C[C@H](OC(=O)[C@H](O)[C@@H](NC(=O)c4ccccc4)c4ccccc4)C(C)=C1C3(C)C)[C@]1(OC(C)=O)CO[C@@H]1C[C@@H]2O is reported as 0.46 ± 0.12 µM (Cytochrome P450 2C8 (CYP2C8, Homo sapiens, UniProt P10632, K399R/R139K); ligand binding, equilibrium spectral binding; purified protein; pH 7.4, 25 °C, high-affinity site, 1% CHAPS).
With COc1ccc(CC2c3cc(OC)c(OC)cc3CCN2CC(=O)NCc2ccc(Cl)cc2)cc1OC (stereo not drawn) the Kd was 0.162 ± 0.016 µM (HCRTR1).
For COc1cccc2c1C(=O)c1c(O)c3c(c(O)c1C2=O)C[C@@](O)(C(C)=O)C[C@@H]3O[C@H]1C[C@H](N)[C@H](O)[C@H](C)O1, the Kd was 8.2 ± 0.9 µM (HIV-1 SL3 RNA stem-loop; binding, ESI-FTMS titration; pH 7.5).
For COc1ccc(CC2c3cc(OC)c(OC)cc3CCN2CC(=O)Nc2ccc(-c3ccccc3)cc2)cc1OC (stereo not drawn), the Kd was 2.24 ± 0.11 µM (HCRTR1).
With `Aspartic acid methyl ester` the Kd was 83000 ± 17000 µM (LRP1, CR3 domain (Homo sapiens, UniProt Q07954); tryptophan fluorescence titration; pH 5.5, CR3 domain, low ionic strength).
For NC[C@@H]1O[C@H](O[C@H]2[C@@H](O)[C@H](O[C@@H]3[C@@H](O)[C@H](N)C[C@H](N)[C@H]3O[C@H]3O[C@H](CO)[C@@H](O)[C@H](O)[C@H]3N)O[C@@H]2CO)[C@H](N)[C@@H](O)[C@@H]1O, the Kd was 37.7 ± 1.3 µM (HIV-1 SL3 RNA stem-loop; binding, ESI-FTMS titration; pH 7.5).
For CCCCOc1cc2c(cc1OC)CCN(CC(=O)NCc1ccccc1)C2Cc1ccc(OC)c(OC)c1 (stereo not drawn), the Kd was 0.0547 ± 0.023 µM (HCRTR1).
CC1=C(/C=C/C(C)=C/C=C/C(C)=C/C=C/C=C(C)/C=C/C=C(C)/C=C/C2=C(C)C[C@H](O)CC2(C)C)C(C)(C)C[C@H](O)C1 has a Kd of 1.36 ± 0.06 µM (Steroidogenic acute regulatory protein, mitochondrial, START domain (STAR, Homo sapiens, UniProt P49675); binding, SPR, FastStep injection; 25 °C, immobilized protein).
COc1ccc(CC2c3cc(OC)c(OC)cc3CCN2CC(=O)NCc2ccccc2)cc1OC (stereo not drawn) has a Kd of 0.199 ± 0.047 µM (HCRTR1).
For C[C@H](NC(=O)[C@@H](N)CC(=O)O)C(=O)N1CCC[C@H]1C(=O)N1CCC[C@H]1C(=O)N1CCC[C@H]1C(=O)N[C@@H](CCCNC(=N)N)C(=O)N1CCC[C@H]1C(=O)N1CCC[C@H]1C(=O)N[C@@H](CCCCN)C(=O)N1CCC[C@H]1C(=O)N[C@@H](Cc1c[nH]cn1)C(=O)N1CCC[C@H]1C(=O)O, the Kd was 323 µM (GRB2; binding, ITC; pH 8).

For quick reference, copied from above:
The Kd of c1ccc2c(c1)ccc1nc3ccc4ccccc4c3cc12 is reported as 1.6 µM and < 2.5 µM (Cytochrome P450 1B1 (CYP1B1, Homo sapiens, UniProt Q16678); binding, fluorescence; pH 7.4).
For `PGNESLKAMLFCLFKLSSCNQSNDGSVSHQS`, the Kd was 0.634 µM (anti-EGFR antibody, rabbit; binding, surface plasmon resonance; peptide; pH 7.4; lower = stronger binding).
The Kd of CSCC[C@H](NC(=O)[C@H](CC(C)C)NC(=O)[C@H](CC(C)C)NC(=O)[C@H](CC(C)C)NC(=O)[C@H](C)N)C(=O)N[C@@H](Cc1ccc(O)cc1)C(=O)N[C@@H](CCCNC(=N)N)C(=O)N[C@@H](CCCNC(=N)N)C(=O)O is reported as 1.95 µM (dnaK (Escherichia coli, UniProt P0A6Y8); peptide binding, surface plasmon resonance; together with: ATP).
